Published values gathered from unrelated publications.
Where no end group is shown, it is not given here.

Substance	organism	assay	test system	setting	how to read	inhibition
DVDHVFLRF-NH2 (C-amide)	Drosophila melanogaster	gut contraction	adult gut	1 µM, within 10 min	relative to: DMS effect	100%
O=[N+]([O-])c1cc2nc(Cl)n(CCO)c2cc1[N+](=O)[O-]	Human immunodeficiency virus 1	viral replication, inhibitor	TZM-bl	1 µg/mL		-3.95%
TDVDHVFLRA-NH2 (C-amide)	Drosophila melanogaster	gut contraction	wandering third instar larval gut	injection, 1 µM, within 10 min	relative to: DMS effect	26%
O=C(NCC1CCNCC1)c1cc2ccc(-c3ccoc3)cc2[nH]1	Zika virus	viral replication	U-87 MG, FLR	3 µM		90%
C=C1[C@H](CO)[C@@H](O)C[C@@H]1n1cnc2c(=O)[nH]c(N)nc21	Hepatitis B virus	HBV DNA production	HepG2.2.15, wild type	10 µM, 11 d exposure then 14 d without compound		~40%
CC(=O)OC[C@]12Oc3c(-c4ccc(O)c5c4O[C@@]4(COC(C)=O)C(=C(O)C[C@@H](C)[C@H]4OC(C)=O)C5=O)ccc(O)c3C(=O)C1=C(O)C[C@@H](C)[C@H]2OC(C)=O	Phyllosticta citricarpa	fungal growth		10000 µg/mL, 504 h		65.7%
O=C(NCc1ccc(F)cc1)c1nc(-c2ccccc2F)c2cccnc2c1O	Human betaherpesvirus 5	viral replication, inhibitor	HFF	10 µM		74%
O=C(NCC1CCNCC1)c1cc2ccc(-c3cn[nH]c3)cc2[nH]1	Zika virus	viral replication	U-87 MG, FLR	10 µM		< 68%
OCCn1c(Cl)nc2cc(Br)c(Br)cc21	Human immunodeficiency virus 1	viral replication, inhibitor	TZM-bl	1.25 µg/mL		33.3%
ADVDHVFLRF-NH2 (C-amide)	Drosophila melanogaster	gut contraction	adult gut	1 µM, within 10 min	relative to: DMS effect	100%
O=[N+]([O-])c1cc2nc(Cl)n(CCCO)c2cc1[N+](=O)[O-]	Human immunodeficiency virus 1	viral replication, inhibitor	TZM-bl	10 µg/mL		0.11%
DHVFLRF-NH2 (C-amide)	Drosophila melanogaster	gut contraction	wandering third instar larval gut	injection, 1 µM, within 10 min	relative to: DMS effect	8%
O=[N+]([O-])c1ccc2c(c1)nc(Cl)n2CCO	Human immunodeficiency virus 1	viral replication, inhibitor	TZM-bl	1 µg/mL		1.11%
VDHVFLRF-NH2 (C-amide)	Drosophila melanogaster	heart rate	adult heart	40 nL injected, 1 µM, 10 min	relative to: DMS	68%
O=[N+]([O-])c1ccc2c(c1)nc(Cl)n2CCCO	Human immunodeficiency virus 1	viral replication, inhibitor	TZM-bl	1 µg/mL		-0.47%
TAVDHVFLRF-NH2 (C-amide)	Drosophila melanogaster	gut contraction	wandering third instar larval gut	injection, 1 µM, within 10 min	relative to: DMS effect	32%
C[S+]([O-])c1ccc(-c2nc(-c3ccncc3)c(-c3ccc(F)cc3)[nH]2)cc1 (stereo not shown)	Enterovirus A71	RT-qPCR, refers to: viral RNA	HEK-293T overexpressing Hsp27	8 µM, 9 h		50%
OCCCn1c(Cl)nc2cc(Br)c(Br)cc21	Human immunodeficiency virus 1	viral replication, inhibitor	TZM-bl	1 µg/mL		-0.63%
O=C(O)c1nc(-c2ccc(C(F)(F)F)cc2)c2cccnc2c1O	Human betaherpesvirus 5	viral replication, inhibitor	HFF	10 µM		16%
HVFLRF-NH2 (C-amide)	Drosophila melanogaster	heart rate	wandering third instar larval heart	40 nL injected, 1 µM, 10 min	relative to: DMS	36%
Cc1ccc(CNC(=O)c2nc(Cl)c3cccnc3c2O)cc1	Human betaherpesvirus 5	viral replication, inhibitor	HFF	10 µM		51%
CNCC(=O)N[C@@H](CO)C(=O)N[C@H]1[C@H](O)[C@@H](O)[C@H](n2ccc(N)nc2=O)O[C@@H]1C(N)=O	Cucumber mosaic virus	inactivation activity	host plant	500 µg/mL		74.2%

Excerpt of the above:
Substance	organism	assay	test system	setting	how to read	inhibition
C=C1[C@H](CO)[C@@H](O)C[C@@H]1n1cnc2c(=O)[nH]c(N)nc21	Hepatitis B virus	HBV DNA production	HepG2.2.15, wild type	10 µM, 11 d exposure then 14 d without compound		~40%
CC(=O)OC[C@]12Oc3c(-c4ccc(O)c5c4O[C@@]4(COC(C)=O)C(=C(O)C[C@@H](C)[C@H]4OC(C)=O)C5=O)ccc(O)c3C(=O)C1=C(O)C[C@@H](C)[C@H]2OC(C)=O	Phyllosticta citricarpa	fungal growth		10000 µg/mL, 504 h		65.7%
